Results gathered from unrelated publications.
Values joined by “and” are separate records of one study, mostly repeats; a detail may differ. Numbers after ± are the reported error.
AKR1C1: Aldo-keto reductase family 1 member C1 (AKR1C1, Homo sapiens, UniProt Q04828)
Chain of UniProt Q04828 (whole entry, looked up): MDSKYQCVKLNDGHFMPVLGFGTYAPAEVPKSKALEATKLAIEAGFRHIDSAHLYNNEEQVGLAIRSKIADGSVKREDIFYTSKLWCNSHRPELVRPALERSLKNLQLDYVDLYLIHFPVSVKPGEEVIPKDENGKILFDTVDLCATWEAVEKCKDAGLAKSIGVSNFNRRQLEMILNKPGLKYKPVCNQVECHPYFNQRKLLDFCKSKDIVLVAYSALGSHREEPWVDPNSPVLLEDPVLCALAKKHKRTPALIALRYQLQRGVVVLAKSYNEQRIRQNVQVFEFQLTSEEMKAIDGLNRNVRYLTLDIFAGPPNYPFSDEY
PPO3: PPO3 (Agaricus bisporus, UniProt C7FF04)
Chain of UniProt C7FF04 (whole entry, looked up): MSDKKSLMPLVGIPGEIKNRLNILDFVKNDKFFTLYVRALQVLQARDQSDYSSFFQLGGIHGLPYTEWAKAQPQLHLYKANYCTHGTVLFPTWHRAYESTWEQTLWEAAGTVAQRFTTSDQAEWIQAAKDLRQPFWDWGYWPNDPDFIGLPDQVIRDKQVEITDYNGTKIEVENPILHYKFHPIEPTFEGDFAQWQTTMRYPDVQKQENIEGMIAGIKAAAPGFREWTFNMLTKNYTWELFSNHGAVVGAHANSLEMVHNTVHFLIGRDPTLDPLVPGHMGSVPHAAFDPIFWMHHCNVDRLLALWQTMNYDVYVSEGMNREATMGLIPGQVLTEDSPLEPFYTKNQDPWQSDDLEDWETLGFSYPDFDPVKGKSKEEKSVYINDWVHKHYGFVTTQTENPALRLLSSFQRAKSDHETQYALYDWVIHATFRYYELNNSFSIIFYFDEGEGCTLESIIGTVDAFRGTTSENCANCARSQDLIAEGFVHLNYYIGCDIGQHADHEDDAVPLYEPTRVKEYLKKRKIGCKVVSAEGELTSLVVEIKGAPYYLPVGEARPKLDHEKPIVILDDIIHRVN
SIRT1: NAD-dependent protein deacetylase sirtuin-1 (SIRT1, Homo sapiens, UniProt Q96EB6)
Chain of UniProt Q96EB6 (whole entry, looked up): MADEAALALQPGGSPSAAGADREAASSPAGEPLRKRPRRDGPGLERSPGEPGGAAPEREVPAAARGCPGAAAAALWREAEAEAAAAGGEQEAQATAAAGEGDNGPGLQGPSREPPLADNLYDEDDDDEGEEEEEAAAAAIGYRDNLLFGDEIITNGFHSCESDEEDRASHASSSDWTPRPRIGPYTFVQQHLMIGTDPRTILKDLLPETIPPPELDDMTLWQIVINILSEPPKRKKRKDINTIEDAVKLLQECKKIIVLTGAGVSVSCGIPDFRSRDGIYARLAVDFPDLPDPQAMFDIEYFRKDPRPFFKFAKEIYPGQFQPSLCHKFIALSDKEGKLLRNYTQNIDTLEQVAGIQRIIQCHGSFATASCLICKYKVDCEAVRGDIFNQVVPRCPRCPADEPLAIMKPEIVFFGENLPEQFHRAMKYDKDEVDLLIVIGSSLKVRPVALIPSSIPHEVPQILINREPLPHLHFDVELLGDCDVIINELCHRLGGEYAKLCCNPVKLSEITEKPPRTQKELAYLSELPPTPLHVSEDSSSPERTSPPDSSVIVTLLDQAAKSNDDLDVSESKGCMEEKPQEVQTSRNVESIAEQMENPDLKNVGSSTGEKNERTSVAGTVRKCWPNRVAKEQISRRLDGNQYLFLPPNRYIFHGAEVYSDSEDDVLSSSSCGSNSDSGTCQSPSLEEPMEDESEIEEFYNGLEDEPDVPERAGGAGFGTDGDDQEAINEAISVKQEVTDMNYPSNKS
IDO1: Indoleamine 2,3-dioxygenase 1 (IDO1, Homo sapiens, UniProt P14902)
Chain of UniProt P14902 (whole entry, looked up): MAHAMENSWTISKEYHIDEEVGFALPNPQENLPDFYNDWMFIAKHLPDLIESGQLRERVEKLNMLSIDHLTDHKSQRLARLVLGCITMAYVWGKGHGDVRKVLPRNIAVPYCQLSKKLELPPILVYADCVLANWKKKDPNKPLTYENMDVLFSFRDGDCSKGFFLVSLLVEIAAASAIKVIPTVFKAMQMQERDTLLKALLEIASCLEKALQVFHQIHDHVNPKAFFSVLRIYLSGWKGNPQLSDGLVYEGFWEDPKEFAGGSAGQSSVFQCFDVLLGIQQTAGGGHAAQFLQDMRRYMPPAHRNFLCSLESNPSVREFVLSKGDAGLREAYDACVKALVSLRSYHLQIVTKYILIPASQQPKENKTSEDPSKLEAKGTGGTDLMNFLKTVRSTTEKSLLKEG
Chain of UniProt Q7Z2W7 (whole entry, looked up): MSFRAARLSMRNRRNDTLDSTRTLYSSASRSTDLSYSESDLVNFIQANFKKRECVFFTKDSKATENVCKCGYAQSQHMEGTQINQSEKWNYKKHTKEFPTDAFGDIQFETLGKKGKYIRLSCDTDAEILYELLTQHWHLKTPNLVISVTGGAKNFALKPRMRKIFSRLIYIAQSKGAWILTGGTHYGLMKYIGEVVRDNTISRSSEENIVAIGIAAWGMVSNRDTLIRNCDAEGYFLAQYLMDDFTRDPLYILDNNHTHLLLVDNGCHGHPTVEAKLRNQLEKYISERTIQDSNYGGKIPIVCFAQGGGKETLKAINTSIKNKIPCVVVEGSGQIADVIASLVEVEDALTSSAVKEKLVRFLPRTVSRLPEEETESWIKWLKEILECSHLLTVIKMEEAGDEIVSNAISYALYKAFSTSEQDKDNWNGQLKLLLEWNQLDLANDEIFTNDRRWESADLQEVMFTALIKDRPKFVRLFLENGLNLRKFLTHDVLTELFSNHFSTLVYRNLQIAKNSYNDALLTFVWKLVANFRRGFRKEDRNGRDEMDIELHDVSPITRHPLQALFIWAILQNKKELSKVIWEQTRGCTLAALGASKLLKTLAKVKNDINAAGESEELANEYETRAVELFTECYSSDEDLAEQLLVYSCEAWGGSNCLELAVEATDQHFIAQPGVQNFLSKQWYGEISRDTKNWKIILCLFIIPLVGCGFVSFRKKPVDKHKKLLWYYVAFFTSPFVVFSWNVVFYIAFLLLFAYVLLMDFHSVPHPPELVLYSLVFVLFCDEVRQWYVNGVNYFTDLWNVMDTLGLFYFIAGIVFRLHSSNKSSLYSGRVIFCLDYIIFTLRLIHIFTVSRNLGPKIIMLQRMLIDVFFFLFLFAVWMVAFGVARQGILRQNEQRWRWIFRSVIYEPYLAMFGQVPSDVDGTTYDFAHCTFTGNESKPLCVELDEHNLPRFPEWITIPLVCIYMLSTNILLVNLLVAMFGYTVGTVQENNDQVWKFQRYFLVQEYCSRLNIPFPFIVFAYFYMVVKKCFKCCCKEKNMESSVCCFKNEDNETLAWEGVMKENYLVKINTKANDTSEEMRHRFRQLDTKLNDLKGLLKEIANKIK
Chain of UniProt Q01959 (whole entry, looked up): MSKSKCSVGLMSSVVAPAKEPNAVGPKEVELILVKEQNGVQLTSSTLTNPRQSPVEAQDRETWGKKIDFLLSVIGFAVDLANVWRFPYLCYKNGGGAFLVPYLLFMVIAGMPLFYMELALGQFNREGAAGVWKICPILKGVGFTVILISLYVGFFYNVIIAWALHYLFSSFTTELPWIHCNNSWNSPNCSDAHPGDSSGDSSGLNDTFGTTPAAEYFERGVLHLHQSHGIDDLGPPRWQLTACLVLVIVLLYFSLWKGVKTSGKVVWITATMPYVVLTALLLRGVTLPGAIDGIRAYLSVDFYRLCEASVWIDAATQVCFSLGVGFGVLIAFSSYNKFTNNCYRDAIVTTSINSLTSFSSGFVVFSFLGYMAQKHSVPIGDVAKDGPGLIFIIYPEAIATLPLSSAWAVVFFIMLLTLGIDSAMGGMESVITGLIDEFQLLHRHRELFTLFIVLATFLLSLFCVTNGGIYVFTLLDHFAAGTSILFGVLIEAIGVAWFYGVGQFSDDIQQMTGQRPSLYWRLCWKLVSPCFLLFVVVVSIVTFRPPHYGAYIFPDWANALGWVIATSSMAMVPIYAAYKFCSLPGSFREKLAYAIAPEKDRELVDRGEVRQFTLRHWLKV
Chain of UniProt P21728 (whole entry, looked up): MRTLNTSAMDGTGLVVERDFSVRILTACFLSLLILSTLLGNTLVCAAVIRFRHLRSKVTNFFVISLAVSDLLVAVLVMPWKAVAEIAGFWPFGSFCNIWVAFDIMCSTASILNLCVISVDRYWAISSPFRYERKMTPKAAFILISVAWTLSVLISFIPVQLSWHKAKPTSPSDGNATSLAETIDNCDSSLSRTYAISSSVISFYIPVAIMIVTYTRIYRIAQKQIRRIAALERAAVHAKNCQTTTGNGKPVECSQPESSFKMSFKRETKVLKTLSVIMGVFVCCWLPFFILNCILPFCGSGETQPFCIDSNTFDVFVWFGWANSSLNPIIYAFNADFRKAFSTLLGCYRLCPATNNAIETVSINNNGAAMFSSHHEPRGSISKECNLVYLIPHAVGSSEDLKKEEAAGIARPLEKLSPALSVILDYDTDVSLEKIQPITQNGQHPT
Chain of UniProt O96013 (whole entry, looked up): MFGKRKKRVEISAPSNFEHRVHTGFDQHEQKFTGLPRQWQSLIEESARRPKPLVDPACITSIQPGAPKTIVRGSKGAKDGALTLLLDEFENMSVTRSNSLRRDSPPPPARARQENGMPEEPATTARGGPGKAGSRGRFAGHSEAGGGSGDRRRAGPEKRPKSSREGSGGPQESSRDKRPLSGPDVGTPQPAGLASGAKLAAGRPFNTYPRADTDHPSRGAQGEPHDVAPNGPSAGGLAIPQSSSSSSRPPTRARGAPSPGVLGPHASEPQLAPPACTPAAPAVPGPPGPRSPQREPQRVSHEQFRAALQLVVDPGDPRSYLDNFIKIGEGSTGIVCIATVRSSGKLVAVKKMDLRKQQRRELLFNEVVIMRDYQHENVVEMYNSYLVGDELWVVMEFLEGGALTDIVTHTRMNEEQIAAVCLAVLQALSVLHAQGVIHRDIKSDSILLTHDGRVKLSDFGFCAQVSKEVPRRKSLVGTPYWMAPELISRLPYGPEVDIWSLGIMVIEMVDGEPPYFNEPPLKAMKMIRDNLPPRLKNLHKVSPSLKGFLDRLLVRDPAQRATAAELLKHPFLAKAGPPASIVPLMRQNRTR

C[C@@H](N)C1CCN(S(=O)(=O)c2cccc3c(=O)[nH]ccc23)CC1 — inhibition (PRKD2 (Homo sapiens, UniProt Q9BZL6); cell-free assay, competition with immobilised ligand; 10 µM): > 95%
CCCCCCCC/C=C\CCCCCCCC(=O)SCCNC(=O)CCNC(=O)[C@H](O)C(C)(C)COP(=O)(O)OP(=O)(O)OC[C@H]1O[C@@H](n2cnc3c(N)ncnc32)[C@H](O)[C@@H]1OP(=O)(O)O — inhibition (KCNK5 (Homo sapiens, UniProt O95279); ion current, inhibitor, inside-out patch clamp; Xenopus oocytes; 10 µM): 70 ± 7%
O=c1c2sccc2n(CC2COc3ccccc3O2)c(=O)n1O (stereo not shown) — inhibition (APEX1 (Homo sapiens, UniProt P27695); inhibitor; concentration not given, with: AP1 substrate 150 nM): no inhibition
CNC(=O)c1ccccc1Oc1nc(Nc2cc(OC)c(OC)c(OC)c2)ncc1Br — inhibition (PAK4 (Homo sapiens, UniProt O96013); enzyme activity, inhibitor; 1 µM): 30 to 50%
CC(=O)C12NC(C)(C)CC1(C)C(=O)C1=C2c2c(c3c4n2C(C)(C)CC2=C4C4(CC(C)(C)NC(C)(C4)C2=O)CC3(C)C)C(=O)C(C)(C)N1 (single isomer, unassigned; (+)) — inhibition (TRPM8 (Homo sapiens, UniProt Q7Z2W7); ion current, inhibitor, patch clamp; HEK-293T; 10 µM): 57.3% and 64.5%
C[N+](C)(CC(=O)Nc1cccc(C(F)(F)F)c1)CC(=O)Nc1cccc(C(F)(F)F)c1 — inhibition (TRPV1 (Homo sapiens, UniProt Q8NER1); calcium influx, inhibitor; HeLa cells transfected; 1 µM, with: 5 µM capsaicin): no inhibition
C[C@@]12CC[C@@H]3c4cc(I)c(O)cc4CC[C@H]3[C@@H]1CCC2=O — inhibition (AKR1C1; enzyme activity, inhibitor, absorbance; 100 µM, pH 9): 42.5%
NC(=O)c1ccc(C(=O)NOCc2ccc(Sc3cccc(Cl)c3)c(C(F)(F)F)c2)cc1 — inhibition (SIRT3 (Homo sapiens, UniProt Q9NTG7); cell-free assay, inhibitor; 100 µM): 17.9%
C#CCSc1nc(Sc2nnnn2-c2ccccc2)c2nnn(Cc3ccccc3Cl)c2n1 — inhibition (Cyclin-dependent kinase 7, with cyclin H (CDK7, Homo sapiens, UniProt P50613); enzyme activity, inhibitor; 10 µM): < 15%
Cc1cc2c(c(O)c1O)C(=O)c1c(O)cc(O)cc1C2=O — inhibition (DRD1 (Homo sapiens, UniProt P21728); cAMP, antagonist; CHO; 50 µM): -30.4%
C[C@H](NC(=O)CNC(=O)[C@@H]1CSSC[C@H](NC(=O)[C@H](C)NC(=O)CN)C(=O)N[C@@H](CCCNC(=N)N)C(=O)N[C@@H](CCCNC(=N)N)C(=O)N[C@@H](CCC(=O)O)C(=O)N[C@@H]([C@@H](C)O)C(=O)N[C@@H](C)C(=O)N[C@@H](Cc2c[nH]c3ccccc23)C(=O)N[C@@H](C)C(=O)N1)C(=O)O — inhibition (Integrin alpha-V/beta-5 (Homo sapiens, UniProt P06756+P18084); cell attachment to vitronectin; HT-29; concentration not given): no inhibition
Cc1ccc(C2=Nc3ccccc3SC(c3cccc([N+](=O)[O-])c3)C2)cc1 (stereo not shown) — inhibition (PPO3; enzyme activity, inhibitor; 25 µg/mL): 13%
CNC(=O)[C@@]12C[C@@H]1[C@@H](n1cnc3c(NCc4cccc(Cl)c4)nc(C#Cc4cccc(Cl)c4)nc31)[C@H](O)[C@@H]2O — inhibition (SLC6A3 (Homo sapiens, UniProt Q01959); ligand displacement, radioligand; 10 µM): 26%
C[C@H](NC(=O)c1ccc2c(c1)nc(-c1c(F)cccc1Cl)n2C1CCCCC1)C(=O)O — inhibition (SIRT1; enzyme activity, inhibitor, fluorescence; 10 µM): < 30%
COc1ccc2c(c1)CC[C@@H]1[C@@H]2CC[C@]2(C)C(=O)CC[C@@H]12 — inhibition (AKR1C1; enzyme activity, inhibitor, absorbance; 100 µM, pH 9): 22.5%
CC(C)[C@H](NC(=O)c1ccc2c(c1)nc(-c1c(F)cccc1Cl)n2C1CCCCC1)C(=O)O — inhibition (SIRT1; enzyme activity, inhibitor, fluorescence; 10 µM): < 30%
C[C@]12CC[C@@H]3c4cc(Br)c(O)c(Br)c4CC[C@H]3[C@@H]1CCC2=O — inhibition (AKR1C1; enzyme activity, inhibitor, absorbance; 10 µM, pH 9): 67%
O=C1/C(=C/c2ccc(-c3ccccc3)cc2)Oc2cc(O)ccc21 — inhibition (ERO1-like protein alpha (Homo sapiens, UniProt Q96HE7, C104A/C131A/C166A); enzyme activity, inhibitor, fluorescence; 10 µM): 20.7%
C[C@]12CCC[C@H]1[C@@H]1CCc3cc(O)ccc3[C@H]1CC2 — inhibition (AKR1C1; enzyme activity, inhibitor, absorbance; 100 µM, pH 9): 12.5%
COc1cc(C(=O)NC2CCC(N3CCN(CC4CCC5(CCCC5)C4)CC3)CC2)c(F)cc1Nc1ncc2c(n1)N(C1CCCC1(F)F)CC(F)(F)C(=O)N2C (stereo not shown) — inhibition (CSF1R (Homo sapiens, UniProt P07333); cell-free assay, TR-FRET; 10 µM): 1.22%
C[C@@]12CC[C@@H]3c4cc(Cl)c(O)cc4CC[C@H]3[C@@H]1CCC2=O — inhibition (AKR1C1; enzyme activity, inhibitor, absorbance; 10 µM, pH 9): 50%
C/C=C/c1cc(=O)c2c(C)cc(OC)c([C@@H]3O[C@H](CO)[C@@H](O)[C@H](O)[C@H]3O)c2o1 — inhibition (IDO1; kynurenine formation; 100 µM): 28.8 ± 1.25%
Cc1ccc(C2=Nc3ccccc3SC(c3ccc(C(=O)O)cc3)C2)cc1 (stereo not shown) — inhibition (PPO3; enzyme activity, inhibitor; 25 µg/mL): 32%
COc1cc(-c2c(C)cc(O[C@@H]3O[C@H](CO)[C@@H](O)[C@H](O)[C@H]3O)cc2O[C@@H]2O[C@H](CO)[C@@H](O)[C@H](O)[C@H]2OC(=O)/C=C/c2ccc(O)cc2)oc(=O)c1 — inhibition (IDO1; kynurenine formation; 100 µM): 20.56 ± 0.15%
COc1ccc2c(c1I)CC[C@@H]1[C@@H]2CC[C@@]2(C)C(=O)CC[C@@H]12 — inhibition (AKR1C1; enzyme activity, inhibitor, absorbance; 10 µM, pH 9): 5.1%
CCC[C@@H]1NC(=O)[C@H]([C@@H](C)O)NC(=O)[C@H](CCCNC(=N)N)NC(=O)CNC(=O)CC[C@@H](C(=O)N[C@@H](C)C(=O)N[C@@H](CCCNC(=N)N)C(=O)N[C@@H](CCCCN)C(=O)N[C@@H](CO)C(=O)N[C@H](C(=O)NCC(=O)NCC(N)=O)[C@@H](C)O)NC(=O)[C@H](CCC(N)=O)NC1=O — inhibition (SETD7 (Homo sapiens, UniProt Q8WTS6); enzyme activity, inhibitor, MALDI-TOF MS; 50 µM, 10 min preincubation, 30 min, pH 8, 37 °C, enzyme 500 nM, with: H3 1-21 peptide, SAM 30 µM): ~47%
CC(C)Oc1ccc(B(O)O)c(F)n1 — inhibition (PRE2 (Saccharomyces cerevisiae S288c, UniProt P30656); 20S proteasome activity; 100 µM, with: Suc-LLVY-AMC): ≤ 20%
NCCC(=O)N[C@@H](Cc1c[nH]c2ccccc12)C(=O)N[C@@H](Cc1ccc(Cl)cc1)C(N)=O — inhibition (Ephrin type-A receptor 4, ectodomain (Epha4, Mus musculus, UniProt Q03137); ephrin-A5 binding, antagonist, ELISA; 500 µM, with: ephrin-A5-AP): 45%
C[C@@]12CC[C@@H]3c4ccc(O)cc4CC[C@H]3[C@@H]1CCC2=O — inhibition (AKR1C1; enzyme activity, inhibitor, absorbance; 100 µM, pH 9): 22.5%
CCOc1ccc(C2CC(c3ccc(C)cc3)=Nc3ccccc3S2)cc1 (stereo not shown) — inhibition (PPO3; enzyme activity, inhibitor; 25 µg/mL): 45%
C=CC(=O)Nc1cccc(-c2cnc3[nH]cc(C(=O)NC(C)(C)C)c3n2)c1 — inhibition (CLK4 (Homo sapiens, UniProt Q9HAZ1); enzyme activity, inhibitor; 0.1 µM): > 90%

For quick reference, copied from above:
C=CC(=O)Nc1cccc(-c2cnc3[nH]cc(C(=O)NC(C)(C)C)c3n2)c1 — inhibition (CLK4 (Homo sapiens, UniProt Q9HAZ1); enzyme activity, inhibitor; 0.1 µM): > 90%
Cc1cc2c(c(O)c1O)C(=O)c1c(O)cc(O)cc1C2=O — inhibition (DRD1 (Homo sapiens, UniProt P21728); cAMP, antagonist; CHO; 50 µM): -30.4%
CC(C)[C@H](NC(=O)c1ccc2c(c1)nc(-c1c(F)cccc1Cl)n2C1CCCCC1)C(=O)O — inhibition (SIRT1; enzyme activity, inhibitor, fluorescence; 10 µM): < 30%
